Published values collected from several papers.
Protocols differ between the studies behind these lines. “And” joins repeats or separate records; there may be more than shown. ± marks the error that the study gave. ≈ marks a conversion by molar mass, not a printed value.

`C[C@@H](CO)CCC[C@@H](C)[C@H]1CC[C@H]2[C@@H]3CC=C4C[C@@H](O)CC[C@]4(C)[C@H]3CC[C@]12C` gave an EC90 of 2.5 µM (human rotavirus; viral replication; Caco-2, Wa).
For `CNC(C)C1CCC(N)C(OC2C(N)CC(N)C(OC3OCC(C)(O)C(NC)C3O)C2O)O1` (centres unmarked), the MIC was greater than 8 µg/mL (Pseudomonas aeruginosa; clinical isolate RKI-No_482/15).
With `CC(=O)Oc1ccc(-c2c(C(N)=O)c(N)n(N)c(=O)c2C#N)cc1` the viable count was 0.6 log CFU/mL (Escherichia coli; time-kill; 1 x MIC, 90 min).
With `CO[C@H]1/C=C/O[C@@]2(C)Oc3c(C)c(O)c4c(c3C2=O)C2=NC3(CCN(CC(C)C)CC3)NC2=C(NC(=O)/C(C)=C\C=C\[C@H](C)[C@H](O)[C@@H](C)[C@@H](O)[C@@H](C)[C@H](OC(C)=O)[C@@H]1C)C4=O` the IC90 was 5.87 µM (Mycobacteroides abscessus; bacterial growth; subsp. abscessus Bamboo).
`O=C1/C(=C/c2ccc3ccccc3c2O)NC(=S)N1c1ccccc1`: “inhibition zone diameter” 20 ± 0.3 mm (Fusarium solani; concentration not given).
Under “MIC fold shift”, `CN(C)c1ccc(O)c2c1C[C@H]1C[C@H]3[C@H](N(C)C)C(O)=C(C(N)=O)C(=O)[C@@]3(O)C(O)=C1C2=O` is recorded as 0.5 (Klebsiella pneumoniae; broth microdilution; NCTC 13438; reference: 5% CO2 over ambient air).
`CC(C)(C)CC(C)(C)c1ccc(OCCO)cc1` gave an IC50 of 15 µM (Phelipanche ramosa; seed germination, antagonist; together with: 2-PEITC 100 nM).
`COC(=O)[C@H](Cc1c[nH]c2ccccc12)NCc1cc2ccccc2nc1SC` gave a growth of 98.5% (Pseudomonas aeruginosa; 2 µg/mL, together with: pentamidine 50 µM; reference: control).
`CCCCCCCCCC(=O)N[C@@H](Cc1c[nH]c2ccccc12)C(=O)N[C@H](CC(N)=O)C(=O)N[C@@H](CC(=O)O)C(=O)N[C@@H]1C(=O)NCC(=O)N[C@@H](CCCN)C(=O)N[C@@H](CC(=O)O)C(=O)N[C@H](C)C(=O)N[C@@H](CC(=O)O)C(=O)NCC(=O)N[C@H](CO)C(=O)N[C@@H]([C@H](C)CC(=O)O)C(=O)N[C@@H](CC(=O)c2ccccc2N)C(=O)O[C@@H]1C` has an MIC of 1 µg/mL (Staphylococcus aureus; SH1000; together with: cardiolipin, molar ratio 2).
`COC(=O)[C@@H](NCc1cc2ccccc2nc1OCc1ccccc1)C(C)C` has a growth of 101% (Pseudomonas aeruginosa; 2 µg/mL, together with: pentamidine 50 µM; reference: control).
For `COc1ncc(-c2cn([C@@H]3O[C@](F)(CO)[C@@H](O)[C@H]3O)cn2)c(OC)n1`, the EC50 was greater than 100 µM (Dengue virus; viral replication; Huh-7, DENV-4; 48 h).
Under “log2 fold change”, `Cn1cc(-c2ccc(-c3cncc(Cl)c3N3CCC4(CCNC4=O)CC3)cc2)cn1` is recorded as -2.04 (COLO 205; gene expression, microarray, refers to: KIAA0101 mRNA; concentration not given, 2 h; reference: untreated cells).
`C[C@H]1C[C@H]2CSC(N)=N[C@@]2(c2nc(NC(=O)c3ccc(OC(F)F)cn3)cs2)CO1` — result for “percent change from baseline”: -56.5% (refers to: Aβx-40; healthy adults, plasma; 15 mg once daily, day 7; reference: placebo).
Under “inhibition zone diameter”, `CC(C)c1ccc(/C=C2\N=C(SCc3ccccc3)N(c3ccccc3)C2=O)cc1` is recorded as 15 ± 0.56 mm (Fusarium solani; concentration not given).
The bacterial load of `C[C@@H](O)[C@H]1C(=O)N2C(C(=O)O)=C(SCCN=CN)C[C@H]12` is reported as 6.88 log CFU/g and 6.96 log CFU/g and 6.67 log CFU/g and 6.63 log CFU/g and 6.72 log CFU/g (Escherichia coli; ATCC 25922, female ICR mice, wound infection, full-thickness wound; dose not given).
With `CC(C)n1ncc2c(C(=O)NCC3(C)CNC3)cc(C3CC3)nc21` the plaque reduction was 0% (Enterovirus D68; viral replication; RD, US/MO/14-18947; 30 nM).
With `N=C(N)c1ccc(OCc2cc(Br)cc(COc3ccc(C(=N)N)cc3)c2)cc1` the FICI was no more than 0.023 (Klebsiella pneumoniae; checkerboard; ATCC 13883; unit not given, together with: rifampicin; lower = stronger synergy).
For `COc1ccc(N/N=C/c2ccc(-c3cccc(/C=N/Nc4ccc(OC)cc4)c3)cc2)cc1`, the selectivity ratio was less than 0.6 (Aspergillus flavus; ATCC MYA-3631; reference: CC50 over MIC).
With `N=C(N)c1ccc(OCc2ccc(Br)cc2COc2ccc(C(=N)N)cc2)cc1` the FICI was no more than 0.031 (Klebsiella pneumoniae; checkerboard; ATCC 13883; unit not given, together with: rifampicin; lower = stronger synergy).
For `CC(C)[N+](C)(CCOC(=O)C1c2ccccc2Oc2ccccc21)C(C)C`, the activity score was -3.8 (human iPSC-derived cardiomyocytes; MyBP-C/MYH ratio, plate-normalised SD score; concentration not given, primary screen; direction not given).
`Nc1nc(-c2ccccc2)nc2[nH]nc(Nc3ccc(C(F)(F)F)cc3)c12` gave a clinical score of 0 (coxsackievirus B3; 31-1-93, NMRI mice, CVB3 chronic myocarditis; oral, 100 mg/kg twice daily, day 14, dosed days 0 to 6, score scale 0 to 7; direction not given).
`Cc1ccc(CCC(=O)Nc2nnc(S(N)(=O)=O)s2)cc1` gave an MIC of 12.3 µM (Enterococcus gallinarum; ATCC 49573).
With `COc1ncncc1-c1cn([C@@H]2O[C@](F)(COC(=O)C(C)C)[C@@H](OC(=O)C(C)C)[C@H]2OC(=O)C(C)C)cn1` the EC50 was 25.4 µM (Dengue virus; viral replication; Huh-7, DENV-2; 48 h).
With `COC(=O)[C@H](Cc1c[nH]c2ccccc12)NCc1cc2ccccc2nc1OC` the growth was 37.5% (Pseudomonas aeruginosa; 32 µg/mL, together with: pentamidine 100 µM; reference: control).
For `COc1ncc(-c2cn([C@@H]3O[C@](F)(COC(=O)C(C)C)[C@@H](OC(=O)C(C)C)[C@H]3OC(=O)C(C)C)cn2)cn1`, the EC50 was greater than 100 µM (Dengue virus; viral replication; Huh-7, DENV-2; 48 h).
`CCNC(=O)c1cnn(-c2ccc(-n3ccc(Cl)c(Cl)c3=O)cc2)c1C(F)(F)F` gave an effective concentration of no less than 250 nM (amyloid beta oligomers; dendritic length, MAP2 staining; primary rat hippocampal neurons; together with: 7PA2 conditioned medium).
With `CN[C@H](CC(C)C)C(=O)N[C@H]1C(=O)N[C@@H](CC(N)=O)C(=O)N[C@H]2C(=O)N[C@H]3C(=O)N[C@H](C(=O)N[C@H](C(=O)O)c4cc(O)cc(O)c4-c4cc3ccc4O)[C@H](O)c3ccc(c(Cl)c3)Oc3cc2cc(c3O[C@@H]2O[C@H](CO)[C@@H](O)[C@H](O)[C@H]2O[C@H]2C[C@](C)(N)[C@H](O)[C@H](C)O2)Oc2ccc(cc2Cl)[C@H]1O` the MBC range was greater than 32 µg/mL (Streptococcus pyogenes; ATCC 13813; 1 strain).
`CC(C)[C@@H]1NC(=O)[C@@H](CCCNC(=N)N)NC(=O)[C@H]([C@@H](C)O)NC(=O)[C@@H](CCCN)NC(=O)[C@H](Cc2ccccc2)NC(=O)[C@@H](Cc2ccc(O)cc2)NC1=O`: growth inhibition “inactive” (Balamuthia mandrillaris; CellTiter-Glo; trophozoites; concentration not given).
With `CC(C)C(=O)OC[C@@]1(F)O[C@@H](n2cnc(-c3cnc(N)nc3)c2)[C@H](OC(=O)C(C)C)[C@@H]1OC(=O)C(C)C` the EC50 was 18 µM (Dengue virus; viral replication; Huh-7, DENV-2; 48 h).
Under “maximum germination stimulation”, `CCOC(=O)c1ccccc1-c1c2ccc(=O)cc-2oc2cc(OC3C=C(C)C(=O)O3)ccc12` (centres unmarked) is recorded as 91% (Phelipanche ramosa; stimulant; 1 µM; reference: (±)-GR24).
The MIC50 of `CC(=O)NC[C@H]1CN(c2ccc(N3CCOCC3)c(F)c2)C(=O)O1` is reported as 0.5 µg/mL (≈ 1.48 µM) (Streptococcus pneumoniae; PRSP; 10 isolates).
`Nc1ncc(-c2cn([C@@H]3O[C@](F)(CO)[C@@H](O)[C@H]3O)cn2)cn1` gave an EC50 of greater than 100 µM (Dengue virus; viral replication; Huh-7, DENV-2; 48 h).
For `CC1(C)S[C@@H]2[C@H](NC(=O)[C@H](N)c3ccccc3)C(=O)N2[C@H]1C(=O)O`, the MIC was greater than 16 µg/mL (Pseudomonas aeruginosa; clinical isolate RKI-No_502/15).
`N=C(N)c1ccc(OCCC(CCOc2ccc(C(=N)N)cc2)c2ccccc2)cc1` (centres unmarked) — result for “MIC in combination”: 12.5 µg/mL (Klebsiella pneumoniae; ATCC 13883; concentration not given, together with: rifampicin).
`COc1cc(C#CC(=O)c2ccccc2)ccc1O` gave a biofilm formation of 46% (Pseudomonas aeruginosa; static biofilm; PA14; 10 µM, 24 h, static; reference: DMSO).
For `CC(C)c1ccc(/C=C2\NC(=S)N(c3ccccc3)C2=O)cc1`, “inhibition zone diameter” read 15 ± 0.85 mm (Fusarium solani; concentration not given).
With `COCC(=O)N1CCC[C@@H](C(=O)NCc2nc(-c3ccccc3)cs2)C1` the EC50 was 10 ± 0.85 µM (Plasmodium falciparum; SYBR Green; 3D7; 72 h).
With `COc1ncc(-c2cn([C@@H]3O[C@](F)(CO)[C@@H](O)[C@H]3O)cn2)c(N)n1` the EC50 was greater than 100 µM (Dengue virus; viral replication; Huh-7, DENV-4; 48 h).
`CC(C)C[C@H](NC(=O)C[C@H](O)[C@H](CC(C)C)NC(=O)[C@H](Cc1c[nH]cn1)NC(=O)CNC(=O)[C@@H](NC(=O)[C@H](C)NC(=O)[C@H](Cc1c[nH]c2ccccc12)NC(=O)[C@H](CCC(N)=O)NC(=O)[C@@H](Cc1ccccc1)NC(=O)COCCOCCNC(=O)CCC(C(=O)O)N1CCN(CC(=O)O)CCN(CC(=O)O)CCN(CC(=O)O)CC1)C(C)C)C(N)=O` (some centres unmarked) [lutetium-177 labelled] gave a tissue uptake of 63 ± 44 %ID/g (BALB/c nu/nu mice, bladder; intravenous, 100 pmol, 1 h, together with: PA 300 µg).
The activity score of `C[C@@H]1O[C@@H](OC[C@H]2O[C@@H](Oc3c(-c4ccc(O)c(O)c4)oc4cc(O)cc(O)c4c3=O)[C@H](O)[C@@H](O)[C@@H]2O)[C@H](O)[C@H](O)[C@H]1O` is reported as 3.3 (human iPSC-derived cardiomyocytes; MyBP-C/MYH ratio, plate-normalised SD score; concentration not given, primary screen; direction not given).
For `COc1ncc(-c2cn([C@@H]3O[C@](F)(CO)[C@@H](O)[C@H]3O)cn2)cn1`, the EC50 was greater than 100 µM (Dengue virus; viral replication; Huh-7, DENV-2; 48 h).
For `COC(=O)[C@H](Cc1ccc(O)cc1)NCc1cc2ccccc2nc1SC`, the growth was 94.3% (Pseudomonas aeruginosa; 16 µg/mL, without pentamidine; reference: control).
`Nc1ncncc1-c1cn([C@@H]2O[C@](F)(CO)[C@@H](O)[C@H]2O)cn1` has an EC50 of greater than 100 µM (Dengue virus; viral replication; Huh-7, DENV-4; 48 h).
`CC(C)C[C@H](NC(=O)[C@H](Cc1cccc2ccccc12)NC(=O)OCc1ccccc1)C(=O)NC(/C=C/C=O)C[C@@H]1CCNC1=O` (some centres unmarked) has an EC90 of greater than 10 µM (Norwalk virus; RT-qPCR, refers to: replicon RNA; HG23, GI-1 replicon; 96 h).

Repeated from above:
Under “log2 fold change”, `Cn1cc(-c2ccc(-c3cncc(Cl)c3N3CCC4(CCNC4=O)CC3)cc2)cn1` is recorded as -2.04 (COLO 205; gene expression, microarray, refers to: KIAA0101 mRNA; concentration not given, 2 h; reference: untreated cells).
For `COc1ncc(-c2cn([C@@H]3O[C@](F)(COC(=O)C(C)C)[C@@H](OC(=O)C(C)C)[C@H]3OC(=O)C(C)C)cn2)cn1`, the EC50 was greater than 100 µM (Dengue virus; viral replication; Huh-7, DENV-2; 48 h).
